Results from different studies.
Lines come from different studies, so protocols differ.
CFTR del508-508: Cystic fibrosis transmembrane conductance regulator (CFTR, Homo sapiens, UniProt P13569, del508-508)
GBA1 R534H: Lysosomal acid glucosylceramidase (GBA1, Homo sapiens, UniProt P04062, R534H)
gyrA/gyrB: DNA gyrase (gyrA/gyrB, Escherichia coli, UniProt P0AES4+P0AES6)

| Compound | target or system | test | test system | setting | how to read | endpoint | value |
| --- | --- | --- | --- | --- | --- | --- | --- |
| CNc1ncnc2c1ncn2C1OC(CO)C(O)C1O (centres unmarked) | ADORA3 (Homo sapiens, UniProt P0DMS8, M174Y) | G protein activation, agonist | – | – | – | EC50 | 1800 nM |
| Cc1cc(=O)[nH]c(-n2nc(-c3cccs3)cc2NC(=O)C2(c3ccc(Cl)cc3)CCCC2)n1 | CFTR del508-508 | plasma membrane density, corrector, PM-ELISA | – | – | – | EC50 | 2530 nM |
| O=C(Cc1ccc(OCc2ccccc2)cc1)NC1(C(=O)O)CCN(C(=O)c2ccc(-c3cccc(Cl)c3)cc2)CC1 | AGTR1 (Homo sapiens, UniProt P30556) | reporter gene, agonist, luciferase | – | – | – | EC50 | > 10000 nM |
| CCOC(=O)c1c(S(=O)(=O)Nc2ccc([N+](=O)[O-])cc2)c(-c2ccccc2)n(-c2ccccc2)c1C | CFTR del508-508 | plasma membrane density, corrector, PM-ELISA | – | – | – | EC50 | 2340 nM |
| O=C(NC[C@@H](Cc1ccc(F)cc1)N1CCC(O)(C(F)(F)F)CC1)C1(c2ccc(Cl)cc2)CCCC1 | TRPA1 (Homo sapiens, UniProt O75762, T874A) | – | – | – | – | EC50 | 13000 nM |
| COc1cc(C2C(NC(=O)c3ccc(NC(=O)OC(C)(C)C)cc3)(C(=O)O)C(c3ccc(OC(=O)c4cccs4)c(OC)c3)C2(NC(=O)c2ccc(NC(=O)OC(C)(C)C)cc2)C(=O)O)ccc1OC(=O)c1cccs1 (centres unmarked) | Glucagon-like peptide 1 receptor, with β-arrestin 1 (GLP1R, Homo sapiens, UniProt P43220) | β-arrestin 1 recruitment, agonist, BRET | – | – | – | EC50 | 50100 nM |
| OC[C@H]1[C@@H](O)[C@H](O)[C@@H](O)CN1CCCCOCCC12CC3CC(CC(C3)C1)C2 | GBA1 R534H | inhibitor, 4MU-β-D-glucopyranoside | – | with: 4MU-β-D-glucopyranoside | – | IC50 | 33900 nM |
| CCN(CC)C(CO)c1cccc2c(C)c(C)oc12 (centres unmarked) | LPAR1 (Homo sapiens, UniProt Q92633, W210A) | G-protein dissociation, agonist, NanoBiT | human cells | – | – | EC50 | 49.5 nM |
| N.N.[Cl][Pt+].c1ccc2c(c1)cnc1ccccc12 | gyrA/gyrB | supercoiling inhibition | – | – | – | EC50 | 87000 nM |
| COC1CN([C@H]2CC[C@H]([C@@]3(C)Oc4c(Cl)cc(C(=O)NCc5c(SC)cc(C)[nH]c5=O)c(C)c4O3)CC2)C1 | – | RNA-seq, measured: PLSCR4 | human, whole blood | dose not given, 24 h | reference: pretreatment baseline | log2 fold change | 2.08 |
| OC[C@H]1[C@@H](O)[C@H](O)[C@@H](O)CN1CCCCCOCc1ccc(-c2ccccc2)c(F)c1 | GBA1 R534H | inhibitor, 4MU-β-D-glucopyranoside | – | with: 4MU-β-D-glucopyranoside | – | IC50 | 6000 nM |
| CCN1CCSC1=CC=CC1=[N+](CC)CCS1 | Trypanosoma cruzi | reporter mRNA translation, inhibitor, measured: Renilla luciferase mRNA | cell-free extract | concentration not given, test 3 | reference: positive over negative control | translation activity | 95.6% |
| CCOC(=O)c1c(S(=O)(=O)Nc2ccc(C(F)(F)F)cc2)c(-c2ccccc2)n(-c2ccccc2)c1C | CFTR del508-508 | ion flux, activator | – | – | – | EC50 | 340 nM |
| COc1ccc(C2(C(=O)N3CCC(Nc4nc5ccccc5c(=O)[nH]4)CC3)CC2)cc1 | MRGPRD (Homo sapiens, UniProt Q8TDS7) | miniGq recruitment, agonist, BRET1 | HEK293T | wild-type receptor | – | EC50 | 240 nM |
| CSCC[C@H](NC(=O)[C@H](CCC(N)=O)NC(=O)[C@H](CCCCN)NC(=O)[C@H](CCCNC(=N)N)NC(=O)[C@H](Cc1ccc(O)cc1)NC(=O)[C@H](CCCNC(=N)N)NC(=O)[C@H](CO)NC(=O)[C@H](Cc1ccc(O)cc1)NC(=O)[C@H](CO)NC(=O)[C@H](CC(=O)O)NC(=O)[C@@H](NC(=O)[C@@H](N)Cc1ccccc1)[C@@H](C)O)C(=O)N[C@@H](C)C(=O)N[C@H](C(=O)N[C@@H](CCCCN)C(=O)N[C@@H](CCCCn1cc(C[C@H](NC(=O)CNC(=O)[C@H](CO)NC(=O)[C@H](CCCNC(=N)N)NC(=O)[C@H](CO)NC(=O)[C@H](CC(C)C)NC(=O)[C@H](CC(C)C)NC(=O)CNC(=O)[C@H](C)NC(=O)[C@H](CC(C)C)NC(=O)[C@H](CCCNC(=N)N)NC(=O)[C@H](Cc2c[nH]cn2)NC(=O)[C@@H](NC(=O)[C@@H](N)C(C)C)[C@@H](C)O)C(=O)N[C@H](C(=O)N[C@H](C(=O)N[C@@H](CCCCN)C(=O)N[C@@H](CC(N)=O)C(=O)N[C@@H](CC(N)=O)C(=O)N[C@@H](Cc2ccccc2)C(=O)N[C@H](C(=O)N2CCC[C@H]2C(=O)N[C@H](C(=O)N[C@@H](CC(N)=O)C(=O)N[C@H](C(=O)NCC(=O)N[C@@H](CO)C(=O)N[C@@H](CCCCN)C(=O)N[C@@H](C)C(=O)N[C@@H](Cc2ccccc2)C(N)=O)C(C)C)[C@@H](C)O)C(C)C)C(C)C)C(C)C)nn1)C(=O)N[C@@H](Cc1ccc(O)cc1)C(=O)N[C@@H](CC(C)C)C(=O)N[C@@H](C)C(=O)N[C@@H](C)C(=O)N[C@H](C(=O)N[C@@H](CC(C)C)C(=O)NCC(=O)N[C@@H](CCCCN)C(=O)N[C@@H](CCCNC(=N)N)C(=O)N[C@@H](Cc1ccc(O)cc1)C(=O)N[C@@H](CCCCN)C(=O)N[C@@H](CCC(N)=O)C(=O)N[C@@H](CCCNC(=N)N)C(=O)N[C@H](C(=O)N[C@@H](CCCCN)C(=O)N[C@@H](CC(N)=O)C(=O)N[C@@H](CCCCN)C(N)=O)C(C)C)C(C)C)C(C)C | PACAP-responsive receptors, rat | cAMP accumulation, antagonist | rat spinal cord | with: VIP | – | Kb | 407 nM |
| COc1ccc(C(=O)c2c(C(=O)NCCCN(C)C)oc3ccc(Cl)cc3c2=O)cc1OC | GHSR (Homo sapiens, UniProt Q92847) | G protein activation, agonist, BRET | – | – | – | EC50 | 56.2 nM |
| Cc1nn(-c2cccc(N)c2)c(=O)c2cnc(Nc3ccc(N4CCNCC4)cc3)nc12 | PRKCE (Homo sapiens, UniProt Q02156) | kinase activity, inhibitor, SelectScreen kinase profiling | – | – | – | IC50 | > 10000 nM |
| Cl.[Cl][Ru-4]123([n+]4ccccc4-c4cc(-c5ccccc5)cc([n+]41)-c1cccc[n+]12)[n+]1ccc(-c2ccccc2)c2ccc4c(-c5ccccc5)cc[n+]3c4c21 | gyrA/gyrB | supercoiling inhibition | – | – | – | EC50 | 37800 nM |
| Cn1c(=O)n(C2CCC(=O)NC2=O)c2ccc(C3CCN(CC(=O)Nc4cccc(CS(=O)(=O)N5CC[C@H](Nc6cccc(-c7sc(C(=O)O)c(OCC(=O)O)c7Cl)c6)CC5(C)C)c4)CC3)cc21 (some centres unmarked) | PTPN2 (Homo sapiens, UniProt P17706) | phosphatase activity | – | with: DiFMUP substrate | – | EC50 | 15.1 nM |
| O=C(O)CC(NC(=O)c1ccc(-c2ccc(F)cc2)o1)C(=O)O (centres unmarked) | Sucnr1 (Mus musculus, UniProt Q99MT6) | inositol phosphate, agonist | – | – | – | EC50 | 425 nM |

Excerpt of the above:
| Compound | target or system | test | test system | setting | how to read | endpoint | value |
| --- | --- | --- | --- | --- | --- | --- | --- |
| CCN1CCSC1=CC=CC1=[N+](CC)CCS1 | Trypanosoma cruzi | reporter mRNA translation, inhibitor, measured: Renilla luciferase mRNA | cell-free extract | concentration not given, test 3 | reference: positive over negative control | translation activity | 95.6% |
| CCOC(=O)c1c(S(=O)(=O)Nc2ccc(C(F)(F)F)cc2)c(-c2ccccc2)n(-c2ccccc2)c1C | CFTR del508-508 | ion flux, activator | – | – | – | EC50 | 340 nM |
